# Experimental data pooled from the literature.
# Compare with care: the assays were run in different laboratories. Values joined by “and” are separate records of one study, mostly repeats; a detail may differ.
# HTR2B: 5-hydroxytryptamine receptor 2B (HTR2B, Homo sapiens, UniProt P41595)
# Chain of UniProt Q8IWT6 (whole entry, unmodified, looked up): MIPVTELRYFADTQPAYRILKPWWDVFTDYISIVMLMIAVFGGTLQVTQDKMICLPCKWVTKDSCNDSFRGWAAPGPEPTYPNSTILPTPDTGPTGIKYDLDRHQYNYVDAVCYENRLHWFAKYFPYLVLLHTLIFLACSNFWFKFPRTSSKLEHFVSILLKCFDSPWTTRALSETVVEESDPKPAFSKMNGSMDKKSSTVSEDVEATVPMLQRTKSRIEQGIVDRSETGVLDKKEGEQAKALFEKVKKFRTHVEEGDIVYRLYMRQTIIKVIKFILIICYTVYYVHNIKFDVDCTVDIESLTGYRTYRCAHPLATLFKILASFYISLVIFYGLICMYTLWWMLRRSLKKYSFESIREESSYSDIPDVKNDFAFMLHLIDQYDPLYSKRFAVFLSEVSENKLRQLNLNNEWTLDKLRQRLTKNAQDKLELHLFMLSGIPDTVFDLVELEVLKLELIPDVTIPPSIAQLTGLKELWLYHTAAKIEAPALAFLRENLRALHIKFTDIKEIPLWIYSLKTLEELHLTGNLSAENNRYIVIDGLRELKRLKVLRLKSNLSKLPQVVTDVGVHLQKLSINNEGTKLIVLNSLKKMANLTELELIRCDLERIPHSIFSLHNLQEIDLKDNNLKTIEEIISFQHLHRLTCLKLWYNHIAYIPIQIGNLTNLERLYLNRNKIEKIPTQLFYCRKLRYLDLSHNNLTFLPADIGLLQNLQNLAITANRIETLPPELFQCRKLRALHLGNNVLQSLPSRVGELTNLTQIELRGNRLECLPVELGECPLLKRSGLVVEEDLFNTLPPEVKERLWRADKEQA
# Chain of UniProt P41595 (whole entry, looked up): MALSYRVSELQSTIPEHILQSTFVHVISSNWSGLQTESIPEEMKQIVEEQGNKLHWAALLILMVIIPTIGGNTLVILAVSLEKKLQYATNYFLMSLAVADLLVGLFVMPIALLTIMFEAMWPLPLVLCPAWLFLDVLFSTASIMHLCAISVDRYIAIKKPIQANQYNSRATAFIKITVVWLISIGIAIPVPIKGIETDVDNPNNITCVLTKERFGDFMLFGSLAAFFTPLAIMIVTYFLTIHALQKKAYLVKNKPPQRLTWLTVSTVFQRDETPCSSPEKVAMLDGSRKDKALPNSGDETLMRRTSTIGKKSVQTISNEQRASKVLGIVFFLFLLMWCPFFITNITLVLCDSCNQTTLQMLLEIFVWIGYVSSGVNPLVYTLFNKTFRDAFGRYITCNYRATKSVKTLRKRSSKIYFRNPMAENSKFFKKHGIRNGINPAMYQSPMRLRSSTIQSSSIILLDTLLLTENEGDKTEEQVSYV
# Chain of UniProt P21917 (whole entry, looked up): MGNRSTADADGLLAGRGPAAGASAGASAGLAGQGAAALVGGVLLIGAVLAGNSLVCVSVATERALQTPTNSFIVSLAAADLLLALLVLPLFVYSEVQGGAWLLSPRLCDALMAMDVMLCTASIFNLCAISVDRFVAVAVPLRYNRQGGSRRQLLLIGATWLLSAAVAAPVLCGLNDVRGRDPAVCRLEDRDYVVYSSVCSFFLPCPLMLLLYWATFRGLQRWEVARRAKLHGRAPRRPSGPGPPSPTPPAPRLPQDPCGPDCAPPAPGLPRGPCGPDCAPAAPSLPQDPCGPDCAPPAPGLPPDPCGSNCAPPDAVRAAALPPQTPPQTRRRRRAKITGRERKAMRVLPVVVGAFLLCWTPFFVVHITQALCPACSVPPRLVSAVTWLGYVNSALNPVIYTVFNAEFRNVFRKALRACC
# Chain of UniProt Q13523 (whole entry, looked up): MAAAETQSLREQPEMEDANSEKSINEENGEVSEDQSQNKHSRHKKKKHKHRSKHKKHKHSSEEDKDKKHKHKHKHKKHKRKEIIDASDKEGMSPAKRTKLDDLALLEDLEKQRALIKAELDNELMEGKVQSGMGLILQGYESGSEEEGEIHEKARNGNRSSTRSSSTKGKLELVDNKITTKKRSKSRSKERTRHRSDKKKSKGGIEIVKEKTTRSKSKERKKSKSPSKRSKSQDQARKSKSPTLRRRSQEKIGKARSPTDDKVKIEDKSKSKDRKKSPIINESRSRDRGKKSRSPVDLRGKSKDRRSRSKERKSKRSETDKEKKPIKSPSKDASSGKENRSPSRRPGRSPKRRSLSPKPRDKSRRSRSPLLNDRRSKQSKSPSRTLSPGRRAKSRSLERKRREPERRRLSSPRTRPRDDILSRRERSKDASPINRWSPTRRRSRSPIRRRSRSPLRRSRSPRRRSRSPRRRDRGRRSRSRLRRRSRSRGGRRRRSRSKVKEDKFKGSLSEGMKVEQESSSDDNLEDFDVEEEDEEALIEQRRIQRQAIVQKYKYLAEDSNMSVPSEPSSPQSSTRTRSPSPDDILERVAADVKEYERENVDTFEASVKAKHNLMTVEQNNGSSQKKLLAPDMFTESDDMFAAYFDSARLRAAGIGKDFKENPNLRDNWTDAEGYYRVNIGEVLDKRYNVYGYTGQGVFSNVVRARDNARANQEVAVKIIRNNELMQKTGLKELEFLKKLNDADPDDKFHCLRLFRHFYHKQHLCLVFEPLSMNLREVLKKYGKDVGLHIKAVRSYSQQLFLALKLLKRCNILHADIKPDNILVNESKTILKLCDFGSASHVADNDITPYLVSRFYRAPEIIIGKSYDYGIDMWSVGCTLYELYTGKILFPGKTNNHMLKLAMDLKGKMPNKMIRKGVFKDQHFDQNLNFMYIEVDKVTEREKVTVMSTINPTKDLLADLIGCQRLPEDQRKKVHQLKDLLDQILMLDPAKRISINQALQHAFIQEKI
SMILES,target,assay,test system,setting,inhibition
CC[C@@H]1[C@H](F)C(=O)N[C@@H]1COc1nccc2cc(C(N)=O)c(OC)cc12,"PRPF4B (Homo sapiens, UniProt Q13523)","ATP-site probe binding, ActivX profiling",THP-1 cell lysate,"0.04 mM, Lys2 site",4.1%
O=C(Nc1cccc2c(=O)cc(-c3nnn[nH]3)oc12)c1ccc(OCCCCc2ccccc2)cc1,"LRRC8A/LRRC8C (Homo sapiens, UniProt Q8IWT6+Q8TDW0, M48D/T48D)","ion current, whole-cell patch clamp",HCT LRRC8-/- cells,"10 µM, -100 mV, T48D/M48D heteromers",2.04% and 12.1% and 3.9%
Cc1ccc(OC[C@@H]2CN(CCN3CCc4ccccc43)CCO2)cn1,HTR2B,radioligand binding,,"concentration not given, together with: [3H]LSD",27.9%
O=C(NO)c1ccc(CN2CCCCc3ccccc32)c(F)c1,"DRD4 (Homo sapiens, UniProt P21917)","radioligand binding, radioligand displacement",,"10 µM, mean of replicates",-1.32%
O=C(CN1CCO[C@@H](COc2cccnc2)C1)N1CCc2ccccc21,HTR2B,radioligand binding,,"concentration not given, together with: [3H]LSD",54%
NC/C(=C\F)COc1cccc(Cn2c(=S)[nH]c(=O)c3[nH]cnc32)c1,rat central GABAA receptor,radioligand binding,,"10 µM, together with: muscimol",< 50%
Cc1cc2c(cc1N1C(=O)c3cccc4c(CCCO)ccc(c34)C1=O)n(C)c(=O)n2C (racemic),"Bromodomain-containing protein 2, BD1 (BRD2, Homo sapiens, UniProt P25440)","binding, BROMOscan binding",,100 nM,75%
CCc1oc2ccccc2c1C(=O)c1cc(Br)c(O)c(Br)c1,"SLC22A12 (Homo sapiens, UniProt Q96S37, S238A)",uric acid uptake,HEK293T transfected with SLC22A12 S238A,"0.5 µM, 10 min, 37 °C, mean, together with: [14C]urate 200 µM",47.6%
Cc1ncccc1OC[C@H]1CN(CCN2CCc3ccccc32)CCO1,HTR2B,radioligand binding,,"concentration not given, together with: [3H]LSD",50.9%

# Some of these lines once more:
SMILES,target,assay,test system,setting,inhibition
Cc1ncccc1OC[C@H]1CN(CCN2CCc3ccccc32)CCO1,HTR2B,radioligand binding,,"concentration not given, together with: [3H]LSD",50.9%
